Published values collected from several papers.
Each numbered part is a random draw from the data of one study; scales do not carry over between parts. Several values in a cell are separate wells, animals, samples, runs or records.
Chain of UniProt Q16513 (whole entry, looked up): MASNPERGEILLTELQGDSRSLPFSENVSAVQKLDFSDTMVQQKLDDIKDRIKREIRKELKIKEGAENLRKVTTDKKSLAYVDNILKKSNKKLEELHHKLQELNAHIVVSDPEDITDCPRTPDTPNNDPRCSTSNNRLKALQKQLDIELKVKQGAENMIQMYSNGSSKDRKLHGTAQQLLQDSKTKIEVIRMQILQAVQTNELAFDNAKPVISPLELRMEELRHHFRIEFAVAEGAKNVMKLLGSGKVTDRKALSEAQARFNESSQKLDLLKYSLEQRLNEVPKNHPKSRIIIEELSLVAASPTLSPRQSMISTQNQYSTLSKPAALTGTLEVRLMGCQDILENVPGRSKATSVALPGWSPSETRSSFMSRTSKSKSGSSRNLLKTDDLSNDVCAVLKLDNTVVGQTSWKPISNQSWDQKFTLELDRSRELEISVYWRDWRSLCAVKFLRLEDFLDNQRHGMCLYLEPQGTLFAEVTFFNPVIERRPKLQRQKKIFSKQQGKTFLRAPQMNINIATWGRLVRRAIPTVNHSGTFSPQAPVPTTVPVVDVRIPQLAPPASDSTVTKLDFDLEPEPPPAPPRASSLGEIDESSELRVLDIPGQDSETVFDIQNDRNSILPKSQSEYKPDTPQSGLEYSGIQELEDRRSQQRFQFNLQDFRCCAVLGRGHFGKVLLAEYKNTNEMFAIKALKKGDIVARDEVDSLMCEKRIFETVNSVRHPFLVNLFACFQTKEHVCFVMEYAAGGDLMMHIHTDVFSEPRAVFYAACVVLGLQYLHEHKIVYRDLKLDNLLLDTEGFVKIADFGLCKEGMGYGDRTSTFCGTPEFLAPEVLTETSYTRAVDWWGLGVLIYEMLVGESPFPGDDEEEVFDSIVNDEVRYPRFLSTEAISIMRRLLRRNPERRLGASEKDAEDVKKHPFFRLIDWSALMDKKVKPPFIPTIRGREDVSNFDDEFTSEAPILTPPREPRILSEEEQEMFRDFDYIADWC
Chain of UniProt O14920 (whole entry, looked up): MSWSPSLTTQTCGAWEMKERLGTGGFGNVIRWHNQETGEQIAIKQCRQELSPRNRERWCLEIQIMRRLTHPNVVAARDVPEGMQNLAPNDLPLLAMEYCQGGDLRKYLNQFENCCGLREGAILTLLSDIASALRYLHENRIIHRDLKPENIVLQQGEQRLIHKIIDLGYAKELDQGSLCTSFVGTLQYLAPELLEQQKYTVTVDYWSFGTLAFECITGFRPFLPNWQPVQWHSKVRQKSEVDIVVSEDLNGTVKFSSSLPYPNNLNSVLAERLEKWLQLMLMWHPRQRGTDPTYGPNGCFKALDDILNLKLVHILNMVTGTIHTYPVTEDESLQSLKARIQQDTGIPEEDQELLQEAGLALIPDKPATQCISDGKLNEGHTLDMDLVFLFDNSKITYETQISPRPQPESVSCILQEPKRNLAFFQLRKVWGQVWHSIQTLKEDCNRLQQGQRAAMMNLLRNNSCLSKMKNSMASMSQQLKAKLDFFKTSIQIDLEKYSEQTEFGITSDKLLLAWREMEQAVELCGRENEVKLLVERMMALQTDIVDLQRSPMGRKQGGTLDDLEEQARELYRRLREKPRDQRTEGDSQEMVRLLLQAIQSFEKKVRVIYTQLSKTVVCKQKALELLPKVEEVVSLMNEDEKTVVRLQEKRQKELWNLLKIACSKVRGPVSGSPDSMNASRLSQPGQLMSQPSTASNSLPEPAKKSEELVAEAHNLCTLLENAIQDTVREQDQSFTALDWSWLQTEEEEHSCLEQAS
Chain of UniProt Q99759 (whole entry, looked up): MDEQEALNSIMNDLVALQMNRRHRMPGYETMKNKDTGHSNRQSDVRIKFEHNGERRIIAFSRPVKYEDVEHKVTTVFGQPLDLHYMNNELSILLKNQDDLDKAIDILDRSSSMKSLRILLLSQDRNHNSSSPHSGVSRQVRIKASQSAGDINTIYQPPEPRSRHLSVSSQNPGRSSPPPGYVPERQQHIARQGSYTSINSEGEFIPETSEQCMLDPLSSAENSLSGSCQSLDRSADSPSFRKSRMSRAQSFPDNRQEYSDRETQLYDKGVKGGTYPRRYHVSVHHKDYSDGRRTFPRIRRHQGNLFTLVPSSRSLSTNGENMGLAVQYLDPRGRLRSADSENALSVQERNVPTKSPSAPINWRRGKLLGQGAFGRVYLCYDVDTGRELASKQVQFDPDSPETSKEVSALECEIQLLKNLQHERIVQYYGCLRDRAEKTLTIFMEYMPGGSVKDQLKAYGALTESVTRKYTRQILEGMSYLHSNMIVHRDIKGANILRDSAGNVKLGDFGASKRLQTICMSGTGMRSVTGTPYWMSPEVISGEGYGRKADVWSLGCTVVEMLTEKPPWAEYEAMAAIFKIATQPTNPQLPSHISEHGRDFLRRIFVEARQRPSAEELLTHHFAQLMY
Chain of UniProt O60331 (whole entry, looked up): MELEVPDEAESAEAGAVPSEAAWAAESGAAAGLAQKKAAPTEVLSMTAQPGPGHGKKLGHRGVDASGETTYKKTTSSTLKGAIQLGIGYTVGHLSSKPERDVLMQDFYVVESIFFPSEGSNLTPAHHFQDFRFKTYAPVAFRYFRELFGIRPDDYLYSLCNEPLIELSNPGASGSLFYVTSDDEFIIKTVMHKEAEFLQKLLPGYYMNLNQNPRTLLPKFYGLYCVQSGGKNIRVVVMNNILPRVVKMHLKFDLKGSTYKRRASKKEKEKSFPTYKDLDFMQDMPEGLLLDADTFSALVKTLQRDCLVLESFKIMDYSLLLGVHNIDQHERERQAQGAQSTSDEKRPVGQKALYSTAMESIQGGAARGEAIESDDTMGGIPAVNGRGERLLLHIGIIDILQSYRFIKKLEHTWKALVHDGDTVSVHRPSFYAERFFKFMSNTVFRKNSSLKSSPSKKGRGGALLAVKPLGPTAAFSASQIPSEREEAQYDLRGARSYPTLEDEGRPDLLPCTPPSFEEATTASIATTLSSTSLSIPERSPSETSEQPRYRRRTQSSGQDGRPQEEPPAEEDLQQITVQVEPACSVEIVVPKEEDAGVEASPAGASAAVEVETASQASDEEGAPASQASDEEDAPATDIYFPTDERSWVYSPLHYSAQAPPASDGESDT
Chain of UniProt P00519 (whole entry, looked up): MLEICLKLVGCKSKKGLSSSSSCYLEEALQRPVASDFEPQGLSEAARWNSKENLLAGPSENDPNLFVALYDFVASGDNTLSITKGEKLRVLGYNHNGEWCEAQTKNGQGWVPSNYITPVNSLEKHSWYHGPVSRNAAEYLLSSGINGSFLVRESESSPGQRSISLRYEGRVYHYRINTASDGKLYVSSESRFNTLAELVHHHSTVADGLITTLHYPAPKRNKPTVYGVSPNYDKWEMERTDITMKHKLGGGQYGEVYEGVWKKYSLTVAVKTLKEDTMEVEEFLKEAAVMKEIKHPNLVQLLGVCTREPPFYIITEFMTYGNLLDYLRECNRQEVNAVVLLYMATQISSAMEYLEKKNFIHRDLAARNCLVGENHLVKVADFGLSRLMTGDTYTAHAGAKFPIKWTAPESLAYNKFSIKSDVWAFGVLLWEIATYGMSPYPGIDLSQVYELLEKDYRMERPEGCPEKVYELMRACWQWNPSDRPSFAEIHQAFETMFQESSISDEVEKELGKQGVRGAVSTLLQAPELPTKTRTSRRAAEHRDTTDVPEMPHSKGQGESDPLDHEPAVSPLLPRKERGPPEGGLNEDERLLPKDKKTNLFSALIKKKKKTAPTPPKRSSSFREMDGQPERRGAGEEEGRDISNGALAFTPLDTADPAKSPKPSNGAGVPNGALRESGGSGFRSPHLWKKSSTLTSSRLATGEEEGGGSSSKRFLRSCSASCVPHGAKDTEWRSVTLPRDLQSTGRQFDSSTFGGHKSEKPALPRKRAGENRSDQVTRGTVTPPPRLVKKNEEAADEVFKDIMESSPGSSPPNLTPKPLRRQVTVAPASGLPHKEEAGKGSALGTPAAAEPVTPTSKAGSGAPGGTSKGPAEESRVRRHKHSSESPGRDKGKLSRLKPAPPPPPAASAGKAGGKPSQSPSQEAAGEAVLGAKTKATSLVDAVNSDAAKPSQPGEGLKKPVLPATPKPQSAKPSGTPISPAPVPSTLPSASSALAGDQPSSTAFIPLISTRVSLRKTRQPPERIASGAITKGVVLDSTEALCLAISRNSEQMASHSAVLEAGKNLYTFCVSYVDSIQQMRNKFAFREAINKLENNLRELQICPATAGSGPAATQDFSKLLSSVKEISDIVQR
Chain of UniProt P51956 (whole entry, looked up): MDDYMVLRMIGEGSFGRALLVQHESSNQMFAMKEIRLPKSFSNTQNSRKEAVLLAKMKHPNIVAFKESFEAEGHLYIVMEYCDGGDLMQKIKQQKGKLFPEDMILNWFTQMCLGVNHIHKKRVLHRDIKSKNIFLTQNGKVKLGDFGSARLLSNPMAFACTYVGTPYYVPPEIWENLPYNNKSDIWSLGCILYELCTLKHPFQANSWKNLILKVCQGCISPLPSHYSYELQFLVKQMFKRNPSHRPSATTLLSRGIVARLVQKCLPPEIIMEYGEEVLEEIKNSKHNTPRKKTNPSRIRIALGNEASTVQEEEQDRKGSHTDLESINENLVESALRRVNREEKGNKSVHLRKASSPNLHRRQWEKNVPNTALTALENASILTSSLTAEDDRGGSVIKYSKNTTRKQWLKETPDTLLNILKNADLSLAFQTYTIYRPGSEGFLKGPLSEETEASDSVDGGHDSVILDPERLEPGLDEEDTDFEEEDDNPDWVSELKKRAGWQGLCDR

Study 1
Cell line: Huh-7
Tested at: 10 µM
Time: 24 h
For `NC(=O)c1ccc[n+]([C@@H]2O[C@H](COP(=O)([O-])OP(=O)(O)OC[C@H]3O[C@@H](n4cnc5c(N)ncnc54)[C@H](O)[C@@H]3O)[C@@H](O)[C@H]2O)c1`, the viability was 104%.
`CCS(=O)(=O)CCn1c([N+](=O)[O-])cnc1C` gave a viability of 93.4%.
`CC(C)Cc1ccc(C(C)C(=O)O)cc1` (stereo not drawn) has a viability of 98.5%.
`O=C(Cn1ccnc1[N+](=O)[O-])NCCO` has a viability of 79.3%.
`CCCC(C(=O)OCCN(CC)CC)(c1ccccc1)c1ccccc1` has a viability of 96.9%.
The viability of `COc1cc(C(=O)NCc2ccc(OCCN(C)C)cc2)cc(OC)c1OC` is reported as 99.7%.

Study 2
Cell line: mouse MPNST tumor cells
Technique: high-content nuclear imaging
Measured: cell number
Tested at: 10 µM
Time: 12 h
Notes: mean of 2 replicates
Relative to: plate mean
Reading: higher = more cells
The nuclei count of `CCc1ccc(CCOc2ccc(CC3SC(=O)NC3=O)cc2)nc1` (stereo not drawn) is reported as 2.29 z-score and -0.363 z-score.
For `COC[C@H](C)Oc1cc(O[C@@H](C)Cc2ccccc2)cc(C(=O)Nc2ccc(C(=O)O)cn2)c1`, the nuclei count was 0.31 z-score.
With `CC#CCOc1ccc(S(=O)(=O)N2CCSC(C)(C)[C@@H]2C(=O)NO)cc1` the nuclei count was 2.95 z-score.
With `COc1ccc(NS(=O)(=O)c2ccc(N)cc2)nn1` the nuclei count was 4.65 z-score.
For `CC(C)(Sc1cc(C(C)(C)C)c(O)c(C(C)(C)C)c1)Sc1cc(C(C)(C)C)c(O)c(C(C)(C)C)c1`, the nuclei count was 0.161 z-score and 0.898 z-score.
With `Cc1cccc(C)c1NC(=O)C(C)N` (stereo not drawn) the nuclei count was -0.185 z-score.

Study 3
Structure (SMILES): CN1CCN(C(=O)c2ccc(NC(=O)Nc3ccc(N(C)c4ccnc(Nc5ccc(CS(C)(=O)=O)cc5)n4)cc3)cc2)CC1
Tested at: 1 µM
It gave 100% for remaining binding (Epidermal growth factor receptor (EGFR, Homo sapiens, UniProt P00533); competitive binding panel; relative to: vehicle).
The remaining binding was 2.4% (BMP-2-inducible protein kinase (BMP2K, Homo sapiens, UniProt Q9NSY1); competitive binding; BIKE).
For Serine/threonine-protein kinase N2 (PKN2, Homo sapiens, UniProt Q16513); competitive binding panel; relative to: vehicle: remaining binding read 100%.

Study 4
Compound: O=C(NCc1ncc(C(F)(F)F)cc1Cl)c1ccc2c(c1)C1(CCS(=O)(=O)CC1)[C@@H](C1CC1)N2S(=O)(=O)c1ccc(F)cc1
Observed: cell-free assay
Technique: competition with immobilised ligand
Tested at: 1 µM
The remaining binding was 89% (Serine/threonine-protein kinase MAK (MAK, Homo sapiens, UniProt P20794)).
For Inhibitor of nuclear factor kappa-B kinase subunit beta (IKBKB, Homo sapiens, UniProt O14920): remaining binding read 86%.
The remaining binding was 89% (Tyrosine-protein kinase ABL1, non-phosphorylated (ABL1, Homo sapiens, UniProt P00519)).
For Serine/threonine-protein kinase Nek3 (NEK3, Homo sapiens, UniProt P51956): remaining binding read 100%.
Mitogen-activated protein kinase 7 (MAPK7, Homo sapiens, UniProt Q13164) — remaining binding: 97%.
It gave 84% for remaining binding (Serine/threonine-protein kinase 38 (STK38, Homo sapiens, UniProt Q15208)).
For Serine/threonine-protein kinase LATS1 (LATS1, Homo sapiens, UniProt O95835): remaining binding read 97%.
The remaining binding was 67% (Casein kinase II subunit alpha (CSNK2A1, Homo sapiens, UniProt P68400)).
The remaining binding was 100% (Ephrin type-B receptor 3 (EPHB3, Homo sapiens, UniProt P54753)).
Mitogen-activated protein kinase kinase kinase 3 (MAP3K3, Homo sapiens, UniProt Q99759) — remaining binding: 60%.
It gave 69% for remaining binding (Cyclin-dependent kinase 15 (CDK15, Homo sapiens, UniProt Q96Q40)).
It gave 100% for remaining binding (Phosphatidylinositol 4-phosphate 5-kinase type-1 alpha (PIP5K1A, Homo sapiens, UniProt Q99755)).
The remaining binding was 94% (Phosphatidylinositol 4-phosphate 5-kinase type-1 gamma (PIP5K1C, Homo sapiens, UniProt O60331)).

Further values, each from its own experiment
Target: Cyclin-dependent kinase 9, with cyclin T1 (CDK9, Homo sapiens, UniProt P50750)
Chain of UniProt P50750 (whole entry, looked up): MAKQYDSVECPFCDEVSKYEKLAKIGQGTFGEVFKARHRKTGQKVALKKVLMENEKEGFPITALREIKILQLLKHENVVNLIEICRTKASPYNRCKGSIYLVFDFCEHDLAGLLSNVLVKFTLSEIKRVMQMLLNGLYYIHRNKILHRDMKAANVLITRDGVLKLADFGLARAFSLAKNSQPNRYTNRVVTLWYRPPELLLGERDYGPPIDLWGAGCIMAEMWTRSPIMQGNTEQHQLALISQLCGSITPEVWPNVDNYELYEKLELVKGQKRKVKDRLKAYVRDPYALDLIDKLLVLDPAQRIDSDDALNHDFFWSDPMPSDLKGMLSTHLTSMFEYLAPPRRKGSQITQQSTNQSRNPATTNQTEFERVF
Observed: cell-free assay
Tested at: 0.5 µM
`CS(=O)(=O)CCNCc1ccc(-c2ccc3ncnc(Nc4ccc(OCc5cccc(F)c5)c(Cl)c4)c3c2)o1` has a remaining signal of 85.2%.
With `COc1cc2ncnc(Nc3ccc(F)c(Cl)c3)c2cc1OCCCN1CCOCC1` the remaining signal was 87.3%.

Excerpt of the above (study 4):
The remaining binding was 67% (Casein kinase II subunit alpha (CSNK2A1, Homo sapiens, UniProt P68400)).
The remaining binding was 100% (Ephrin type-B receptor 3 (EPHB3, Homo sapiens, UniProt P54753)).
Mitogen-activated protein kinase kinase kinase 3 (MAP3K3, Homo sapiens, UniProt Q99759) — remaining binding: 60%.
It gave 69% for remaining binding (Cyclin-dependent kinase 15 (CDK15, Homo sapiens, UniProt Q96Q40)).
